Measurements gathered from unrelated publications.
± marks the error that the study gave.
Target: Broad substrate specificity ATP-binding cassette transporter ABCG2 (ABCG2, Homo sapiens, UniProt Q9UNQ0)
Sequence (Q9UNQ0 1-655, as in one of the studies): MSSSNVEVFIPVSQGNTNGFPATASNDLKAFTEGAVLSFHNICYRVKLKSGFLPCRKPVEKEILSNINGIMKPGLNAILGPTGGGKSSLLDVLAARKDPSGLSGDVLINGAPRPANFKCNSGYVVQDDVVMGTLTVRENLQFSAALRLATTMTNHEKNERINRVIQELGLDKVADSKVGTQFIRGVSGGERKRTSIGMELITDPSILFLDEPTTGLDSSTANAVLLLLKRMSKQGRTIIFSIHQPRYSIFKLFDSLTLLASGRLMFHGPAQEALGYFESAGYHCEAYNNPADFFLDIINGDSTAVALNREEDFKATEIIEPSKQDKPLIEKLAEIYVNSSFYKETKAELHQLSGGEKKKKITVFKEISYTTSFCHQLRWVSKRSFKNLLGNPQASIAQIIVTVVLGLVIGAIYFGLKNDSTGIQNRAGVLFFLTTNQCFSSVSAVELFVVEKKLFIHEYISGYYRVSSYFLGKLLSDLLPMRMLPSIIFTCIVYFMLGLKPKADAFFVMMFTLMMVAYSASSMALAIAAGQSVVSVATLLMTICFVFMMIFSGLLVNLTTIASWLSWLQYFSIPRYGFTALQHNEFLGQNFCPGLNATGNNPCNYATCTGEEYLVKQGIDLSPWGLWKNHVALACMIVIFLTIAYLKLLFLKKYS

SMILES | assay | test system | conditions | how to read | quantity | value
COc1ccc2[nH]cc(CCNC(C)=O)c2c1 |  | MDCK-II cells transduced with ABCG2 | 10 µM, 4 h |  | efflux ratio | 1.11 ± 0.04
COc1ccccc1-c1cc2nc(-c3ccccc3)cc(N3CCN(C(=O)c4ccco4)CC3)n2n1 | JC-1 dye efflux, inhibitor, flow cytometry | ABCG2-overexpressing cells | added: JC-1 1 µM |  | IC50 | 1.03 ± 0.17 µM
O=C(O)[C@H]1O[C@@H](Oc2c(-c3ccc(O)cc3)oc3ccccc3c2=O)[C@H](O)[C@@H](O)[C@@H]1O | glucuronide efflux, substrate | HeLa cells expressing UGT1A9 |  |  | Km | 35.9 ± 11.9 µM
C=CC(=O)N1CCC([C@@H]2CCNc3c(C(N)=O)c(-c4ccc(Oc5ccccc5)cc4)nn32)CC1 | transport, refers to: Lucifer Yellow uptake | membrane vesicles | 1 µM | reference: vehicle | remaining activity | 94.5 ± 3.5%
COc1ccc(-c2cc3nc(-c4ccccc4)cc(N4CCN(C(=O)c5ccoc5)CC4)n3n2)cc1 | JC-1 dye efflux, inhibitor, flow cytometry | ABCG2-overexpressing cells | added: JC-1 1 µM |  | IC50 | 1.16 ± 0.66 µM
O=c1ccc(=O)c2c1c1c(=O)c3ccccc3c1n2CCCc1ccccc1 | mitoxantrone efflux, inhibitor, flow cytometry | HEK293 transfected with ABCG2 | 10 µM, 30 min, added: mitoxantrone 5 µM | reference: Ko143 1 µM | inhibition | 33%
Cc1cc(Nc2ncnc3ccc(NC4=NC(C)(C)CO4)cc23)ccc1Oc1ccn2ncnc2c1 | substrate, bidirectional transwell permeability | MDCKII cells transfected with ABCG2 | 1 µM, 1 h, pH 7.4 | reference: without over with ABCG2 inhibitor | net efflux ratio | 7.71
O=C(c1ccc(Cl)cc1)N1CCN(c2cc(-c3ccccc3)nc3cc(-c4cccc(Cl)c4)nn23)CC1 | JC-1 dye efflux, inhibitor, flow cytometry | ABCG2-overexpressing cells | added: JC-1 1 µM |  | IC50 | 2.67 ± 0.85 µM
O=c1ccc(=O)c2c1c1c(=O)c3ccccc3c1n2CCc1ccccc1 | mitoxantrone efflux, inhibitor, flow cytometry | HEK293 transfected with ABCG2 | 10 µM, 30 min, added: mitoxantrone 5 µM | reference: Ko143 1 µM | inhibition | 18%
CC(=O)c1cc(C(=O)N[C@@H](C)Cn2ccc(-c3ccc(C#N)c(Cl)c3)n2)[nH]n1 | inhibitor | MDCK | added: cladribine substrate |  | IC50 | 0.57 µM
Cc1cc(=O)c2c3c(=O)c4ccccc4c3n(CCc3ccccc3)c2c1=O | mitoxantrone efflux, inhibitor, flow cytometry | HEK293 transfected with ABCG2 | 10 µM, 30 min, added: mitoxantrone 5 µM | reference: Ko143 1 µM | inhibition | 99 ± 9%
O=C(c1ccoc1)N1CCN(c2cc(-c3ccccc3)nc3cc(-c4ccc(Br)cc4)nn23)CC1 | JC-1 dye efflux, inhibitor, flow cytometry | ABCG2-overexpressing cells | added: JC-1 1 µM |  | IC50 | 0.76 ± 0.43 µM
COc1ccc2c3c([nH]c2c1)[C@H](CC(C)C)N1C(=O)[C@H](CC(=O)O)NC(=O)[C@@H]1C3 | inhibitor, refers to: protoporphyrin IX | A549 cells | 1 µM, 2 h, added: ALA 1 mM |  | inhibition | 15%

For quick reference, copied from above:
SMILES | assay | test system | conditions | how to read | quantity | value
O=C(O)[C@H]1O[C@@H](Oc2c(-c3ccc(O)cc3)oc3ccccc3c2=O)[C@H](O)[C@@H](O)[C@@H]1O | glucuronide efflux, substrate | HeLa cells expressing UGT1A9 |  |  | Km | 35.9 ± 11.9 µM
